Assay results pooled from the literature.
Parts stem from different laboratories: compare values within a part only.

Series 1
Target: Ras GTPase-activating protein-binding protein 1, full length (G3BP1, Homo sapiens, UniProt Q13283)
Chain of UniProt Q13283 (whole entry, looked up): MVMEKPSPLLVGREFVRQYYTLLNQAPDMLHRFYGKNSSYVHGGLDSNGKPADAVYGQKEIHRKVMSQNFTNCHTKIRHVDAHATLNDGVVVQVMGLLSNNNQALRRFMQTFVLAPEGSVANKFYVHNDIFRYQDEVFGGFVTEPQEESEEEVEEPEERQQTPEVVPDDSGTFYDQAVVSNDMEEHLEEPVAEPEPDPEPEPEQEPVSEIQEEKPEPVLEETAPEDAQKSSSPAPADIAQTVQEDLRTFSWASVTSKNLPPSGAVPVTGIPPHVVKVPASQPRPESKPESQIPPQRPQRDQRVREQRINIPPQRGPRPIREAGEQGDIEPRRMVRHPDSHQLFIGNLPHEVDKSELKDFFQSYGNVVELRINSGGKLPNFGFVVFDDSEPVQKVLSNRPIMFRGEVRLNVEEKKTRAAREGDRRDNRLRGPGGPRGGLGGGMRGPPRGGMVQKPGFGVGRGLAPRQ
Method: RNA Bind-n-Seq
Molecule type: RNA
Sample: in vitro
Tested at: 200 nM
Setting: whole 134-nt RNA, ends assumed
Together with: 150 mM LiCl
Reference: input library
Reading: higher = stronger binding
Library: 7-deaza-guanosine replaces G
`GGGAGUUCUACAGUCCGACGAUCUUAAAGAAAUGUCCACAAGUAACUUUGAAUCAUCUCCUGAAGUAGAAGAAAGGCCUGCUGUGUCUUUGACUCUUGAUCAGAGCCAGUCACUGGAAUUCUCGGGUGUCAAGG` gave a log2 enrichment of -1.2.
The log2 enrichment of `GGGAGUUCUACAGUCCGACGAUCUCAAGUCCUGUGCUACACAUCGUAUGUACCGAAUCGGGCCGGGGCCGGGGCCGGAAAGUAUUAUGUUACGCCGUUCGGAUCUGCACUUCCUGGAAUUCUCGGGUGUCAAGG` is reported as 0.102.
`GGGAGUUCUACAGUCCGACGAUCGUCCUGUGCUACACAUCGUAUGUACCGAAUCGGGGAAAAAGGGGAAAAAGGGGUGGGGAAAGUAUUAUGUUACGCCGUUCGGAUCUGCACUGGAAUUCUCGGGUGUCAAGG` has a log2 enrichment of -0.821.
For `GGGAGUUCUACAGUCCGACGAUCAGUCCUGUGCUACACAUCGUAUGUACCGAAUCGGGAAAAAGGGUUUUUUUGGGAGGGAAAGUAUUAUGUUACGCCGUUCGGAUCUGCACUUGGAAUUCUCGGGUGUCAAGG`, the log2 enrichment was -1.5.
The log2 enrichment of `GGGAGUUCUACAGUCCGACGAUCUCAAGUCCUGUGCUACACAUCGUAUGUACCGAAUCGGUUUGGGUUUGGUUUGGGGAAAGUAUUAUGUUACGCCGUUCGGAUCUGCACUUCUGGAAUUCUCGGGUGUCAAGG` is reported as -0.458.
For `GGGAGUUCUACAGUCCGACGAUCUGGCCCUGGUGGCAUGCGGGGAGGAAGAGGUGGCCUCAUGGAUCGUGGUGGUGCCGGUGGAAUGUUCAGAGGUGGCCGUGGUGGAGACAGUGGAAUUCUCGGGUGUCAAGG`, the log2 enrichment was 0.176.
With `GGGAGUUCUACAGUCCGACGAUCAGUCCUGUGCUACACAUCGUAUGUACCGAAUCGGGGUUUGGGGUUUGGGGAAAGGGGAAAGUAUUAUGUUACGCCGUUCGGAUCUGCACUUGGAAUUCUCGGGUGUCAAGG` the log2 enrichment was -0.228.
With `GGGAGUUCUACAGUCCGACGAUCCACAGACAACACGCACCCACACAGACACAGAGGGAAGGGGUUCGGAUGGGGACAGGGUGCACAGCAGGGCGGGGUAGGACCCCAGCCCCUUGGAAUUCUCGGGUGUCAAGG` the log2 enrichment was -0.857.

Series 2
Target: RNA binding protein fox-1 homolog 2, RRM domain, GST-SBP tag (RBFOX2, Homo sapiens, UniProt O43251-10, residues 100-194)
Method: RNA Bind-n-Seq
Molecule type: RNA
Sample: in vitro
Tested at: 365 nM
Setting: natural RNA segment, single round, ends assumed
Reference: no-protein control
Reading: higher = stronger binding
Residues (chain): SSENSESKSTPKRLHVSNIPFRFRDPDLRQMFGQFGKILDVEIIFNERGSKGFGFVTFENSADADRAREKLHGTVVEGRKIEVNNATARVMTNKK
`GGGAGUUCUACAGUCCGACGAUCAGUGACCCCAGGUUUAGCAUCGUCCUAUACUGUUCCCUCCACUCCUCCAUGACCCUCUGAGUGAUGGUUCUUUUGCGCCCUGUAGCUGUUCUAGGAUAGGAUGCAUGUUAUGGAAUUCUCGGGUGCCAA`: “RBNS enrichment (R)” 5.1.
For `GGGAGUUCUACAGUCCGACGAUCAGAGCCUGUGAUAGUUGCUGUGGGCAGCCAGUUCCUGGGGCUUCCUCUUGGGCCCCCUGCACUCGGUCUCCCCUGGAGUUUCUGAAUUCUCUCACCCAAGUCCCUACACAUGGAAUUCUCGGGUGCCAA`, “RBNS enrichment (R)” read 0.431.
`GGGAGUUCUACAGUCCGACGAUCUUUGGCCAUUGUCUAUUUGACAGUAACAGUAUUCCCAAUUUUUGUAAAGUUGUAUGUGCUGUUGUGUAAGUGUAACACUGUUUUUCUCUUGCAUGAAAUAGAUUUACUCUUGGAAUUCUCGGGUGCCAA` — result for “RBNS enrichment (R)”: 2.7.
`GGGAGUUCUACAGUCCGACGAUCAAGUGUGUGACCUUUUCUCCUGCUGAGUGGGAGAUCCCAGGGUCCCACACGCCUCACCUCGGUGAGUGGGCAGAGCUGAGCCGCACUGUGUGCCUGGGAGCAGGUUACAAUGGAAUUCUCGGGUGCCAA` — result for “RBNS enrichment (R)”: 0.206.
Under “RBNS enrichment (R)”, `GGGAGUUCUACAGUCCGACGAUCCCUUUGCUUUCACACAGCAUAGCUUAUAAUUUGAUUAUGUUUCCUUCUUCAUGGGAAAUGUUAAAAGUUUAGCAUGUAACAUGUAAAUAUGUUGUACUUAAUGUUGAUCUUGGAAUUCUCGGGUGCCAA` is recorded as 2.54.
`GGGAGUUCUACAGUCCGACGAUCCCGUGAAUUCUCGGAAUGGCAGGGGAAGCCUUGCACUAGGUUGCAGAGAAGCAUCCUCCACAUCCUGUGUCAGAAACCCUGGUCUCCGUGGCACUUGUAACUCACCGUGCUGGAAUUCUCGGGUGCCAA`: “RBNS enrichment (R)” 0.44.
`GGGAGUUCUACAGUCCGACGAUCACAUAGUGUGAGUCAAGGCCAGCUUGGGCUACAUGACACCCUGUCCAGGGGAGGAGGUGGGCAAGCUAACCGAAAGACUCCAUCUUUGUGUGCCCCACCCCUGGACAUAUUGGAAUUCUCGGGUGCCAA`: “RBNS enrichment (R)” 0.317.
`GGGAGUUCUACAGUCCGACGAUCACUUCUUACAUUGUGGCAAGAAAAAAUGAGGAAGAAGCAAAAGCAGAAACCCCUGAUAAACUGAUCAGAUCUCAUGAGACUUAUUCACUGUCACGAGAAUAGCACGGGAAUGGAAUUCUCGGGUGCCAA`: “RBNS enrichment (R)” 1.58.

Series 3
Organism: Saccharomyces cerevisiae
Effect on: binding
Method: competitive growth deep sequencing
Molecule type: peptide
Strain: cyclin D3-Cln2 fusion strain
Tested at: concentration not given
Setting: RxL motif peptides
Reading: direction not given
`SFEPRNLLSLFED` — result for “growth enrichment score”: -0.101.
Under “growth enrichment score”, `SSAQRRLEIPSGG` is recorded as -0.0381.
For `PPARRRLRLSVDE`, “growth enrichment score” read 0.0745.

Mixed results
With `PhoQ, residues 284 288 289 292 302 303 SCCLKL` the fold induction was 4.13 (PhoP, residues 12 14 15 18 19 SMASL (Escherichia coli, UniProt P23836); Sort-seq, item: YFP reporter; E. coli; PhoQ-PhoP variant library, together with: 10 µM Mg2+; reference: high Mg2+ state, higher = stronger signaling).

Excerpt of the above (series 1):
For `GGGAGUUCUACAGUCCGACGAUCAGUCCUGUGCUACACAUCGUAUGUACCGAAUCGGGAAAAAGGGUUUUUUUGGGAGGGAAAGUAUUAUGUUACGCCGUUCGGAUCUGCACUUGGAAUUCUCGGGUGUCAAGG`, the log2 enrichment was -1.5.
With `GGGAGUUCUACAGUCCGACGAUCCACAGACAACACGCACCCACACAGACACAGAGGGAAGGGGUUCGGAUGGGGACAGGGUGCACAGCAGGGCGGGGUAGGACCCCAGCCCCUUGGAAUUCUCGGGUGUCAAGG` the log2 enrichment was -0.857.
